Measured values from different studies.
Numbered parts are unrelated; each lists some results of a single study. Positions count from the first letter of the parent shown.

Sample 1
Target: ABI1, truncated, D143A, DHFR fusion (Arabidopsis thaliana)
Technique: DHFR PCA, deep sequencing
Sample: yeast
Setting: methotrexate growth selection, single substitutions
Added: (+)-ABA 200 µM
Baseline: wild-type fitted maximum
Reading: higher = stronger binding
Starting sequence: PYL1, truncated, DHFR fusion (Arabidopsis thaliana); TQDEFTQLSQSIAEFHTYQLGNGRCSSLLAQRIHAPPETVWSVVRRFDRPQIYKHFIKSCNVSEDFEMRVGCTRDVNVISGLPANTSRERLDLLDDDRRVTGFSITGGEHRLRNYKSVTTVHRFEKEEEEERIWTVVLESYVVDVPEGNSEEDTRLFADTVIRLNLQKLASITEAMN; partner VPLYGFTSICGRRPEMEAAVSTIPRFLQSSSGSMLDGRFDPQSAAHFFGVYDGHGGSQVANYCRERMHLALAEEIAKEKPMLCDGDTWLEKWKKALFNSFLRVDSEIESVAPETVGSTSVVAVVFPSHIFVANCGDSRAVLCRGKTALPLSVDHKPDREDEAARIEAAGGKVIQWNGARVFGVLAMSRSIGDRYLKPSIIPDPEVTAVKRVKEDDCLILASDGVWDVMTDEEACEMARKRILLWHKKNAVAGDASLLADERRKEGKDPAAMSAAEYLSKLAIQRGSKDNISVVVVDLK
Substitution | relative binding score [%]
R24D | 72.1
L20S | 104
D97P | 91.4
S27G | 102
Q7F | 95.2
A35I | 35.4
L82Q | 43.4
K54R | 52
N61V | 103
L8P | 52.8
L169V | 31.1
Q19M | 94
S87Y | 22.8
P146N | 34.9
L28V | 97.3
R99W | 110

Sample 2
Target: CCNA2, cyclin fold, Cln2 fusion (human)
Technique: yeast growth competition, sequencing
Sample: yeast
Setting: strong parent motif
Baseline: not given
Reading: higher = stronger binding
Starting sequence: ASZ1 docking peptide (human); GFGFLLFICKLTF; partner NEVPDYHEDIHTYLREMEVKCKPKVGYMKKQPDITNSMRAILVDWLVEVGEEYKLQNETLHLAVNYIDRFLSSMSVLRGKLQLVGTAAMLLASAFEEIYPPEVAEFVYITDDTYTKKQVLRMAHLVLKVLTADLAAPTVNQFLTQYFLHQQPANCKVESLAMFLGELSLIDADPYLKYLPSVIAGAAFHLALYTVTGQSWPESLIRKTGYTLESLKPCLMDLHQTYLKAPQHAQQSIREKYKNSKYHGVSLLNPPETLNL
Substitution | normalised enrichment score
GFGFALFICKLTF [L5A] | 1.4
GFGFLLFICKLTA [F13A] | 1.33
AFGFLLFICKLTF [G1A] | 1.38
GFGFLLFICALTF [K10A] | 0.952
GFGFLLFACKLTF [I8A] | 0.847
GFGFLLFIAKLTF [C9A] | 1.81
GFAFLLFICKLTF [G3A] | 1.54

Sample 3
Target: Sal-like protein 4, full length isoform B (SALL4, Homo sapiens, UniProt Q9UJQ4-2, residues 1-616)
Technique: universal PBM
Form: double-stranded DNA, one strand shown
Sample: in vitro
Tested at: not given
Setting: 8-mer, flanks averaged, mean of replicates
Reading: higher = stronger binding
Sequence | E-score
AATTCACG | 0.11
CATAATTC | 0.384
GCACCGCC | -0.402
ATGCTAGC | 0.125
CAAGGTGA | -0.19
CTCCTATA | 0.229
CAGGAATA | 0.165
CGCTACGA | -0.0584
AGTTGTCC | 0.0116
AAAATTTC | 0.18
TCAGGAAA | 0.0225
CTCCGCAG | -0.169
CCACGAAC | 0.0236
ACTGCCAT | 0.0858
AGCAGAAT | 0.142
AATTGTCA | 0.24

Sample 4
Target: OGT, full length, His-tagged (human)
Technique: phage display, sequencing
Sample: in vitro
Tested at: 1 µg OGT
Setting: single substitutions, 15-mer displayed peptide, unchanged parent 19.6
Baseline: input library
Reading: higher = stronger binding
Starting sequence: peptide; TAPFYPPAYQIQVFK
Substitution | fold enrichment [fold]
F4W | 20.9
Q12M | 7.68
Y9S | 0.442
F14S | 18.4
Q12W | 6.05
P3G | 20.5
Y9I | 3.9
A2W | 10.8
A8Y | 6.66
Y5H | 1.04
Y9K | 0.484
A2L | 22.8
Y5Q | 1.01
V13L | 17.4
I11N | 0.719
Y5K | 1.99
V13S | 4.9
Y9E | 0.474
F14Q | 20.1
A2G | 20.6
P7Q | 1.1
I11V | 0.881

Sample 5
Target: Histone acetyltransferase KAT6A, both winged helices, GST fusion (KAT6A, Homo sapiens, UniProt Q92794, residues 1-181)
Technique: protein binding microarray
Form: double-stranded DNA, one strand shown
Sample: in vitro
Tested at: not given
Setting: 8-mer, flanks averaged, mean of 2 arrays, mostly near background
Baseline: not given
Reading: higher = stronger binding
Construct (chain): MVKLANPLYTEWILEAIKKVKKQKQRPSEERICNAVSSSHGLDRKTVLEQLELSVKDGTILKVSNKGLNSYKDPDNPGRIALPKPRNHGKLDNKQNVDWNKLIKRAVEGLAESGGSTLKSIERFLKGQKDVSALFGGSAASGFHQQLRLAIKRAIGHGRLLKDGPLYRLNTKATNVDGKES
Sequence | E-score
ACAATCAC | -0.0736
CAAAGTCG | -0.0973
ATCTTCGC | -0.0358
CAAGTTAA | -0.096
AAGCAAAT | -0.169
GAAGTTTA | -0.0443
CAGGGGAA | -0.226
CACATAAC | -0.0547
AAATTAGT | -0.0363
TGAAACCA | -0.12
AAAGTCCT | -0.165
GATGACTA | -0.0931
ATAAAGGC | -0.0807
CGTCTTTA | 0.0562
ACGGGCGA | 0.276
AGGAACGA | 0.0585
CAGCAAAC | -0.0814
ATAACCTC | -0.11

Sample 6
Target: Ras GTPase-activating protein-binding protein 1, C-terminal RGG region (G3BP1, Homo sapiens, UniProt Q13283)
UniProt Q13283, sequence (whole entry, looked up): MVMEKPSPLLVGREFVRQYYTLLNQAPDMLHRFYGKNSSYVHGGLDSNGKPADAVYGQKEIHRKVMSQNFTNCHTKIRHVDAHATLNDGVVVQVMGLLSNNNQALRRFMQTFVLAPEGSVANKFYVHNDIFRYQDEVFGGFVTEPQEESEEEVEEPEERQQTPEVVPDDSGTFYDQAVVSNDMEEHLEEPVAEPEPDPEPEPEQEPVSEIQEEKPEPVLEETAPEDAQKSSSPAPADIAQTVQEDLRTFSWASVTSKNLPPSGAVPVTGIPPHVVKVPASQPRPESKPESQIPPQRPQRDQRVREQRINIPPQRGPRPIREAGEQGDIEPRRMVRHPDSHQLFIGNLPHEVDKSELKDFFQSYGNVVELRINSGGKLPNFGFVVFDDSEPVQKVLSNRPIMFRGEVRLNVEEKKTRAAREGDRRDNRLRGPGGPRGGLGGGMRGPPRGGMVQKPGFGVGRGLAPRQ
Technique: RNA Bind-n-Seq
Form: RNA
Sample: in vitro
Tested at: 1 µM
Setting: whole 134-nt RNA, ends assumed
Added: 150 mM KCl
Baseline: input library
Reading: higher = stronger binding
Constant ends, left off below: GGGAGUUCUACAGUCCGACGAUC … UGGAAUUCUCGGGUGUCAAGG
Sequence | log2 enrichment
UCAAGUCCUGUGCUACACAUCGUAUGUACCGAAUCGGUUUGGUUUUUUUGGAGGAAAGUAUUAUGUUACGCCGUUCGGAUCUGCACUUCC | -1.11
CUCAAGUCCUGUGCUACACAUCGUAUGUACCGAAUCGGAAAGGUGGUUUUUGGAAAGUAUUAUGUUACGCCGUUCGGAUCUGCACUUCCA | -1.08
UCAAGUCCUGUGCUACACAUCGUAUGUACCGAAUCGGUUUUUUUGGAAAGGUGGAAAGUAUUAUGUUACGCCGUUCGGAUCUGCACUUCC | -1.11
UCCUGUGCUACACAUCGUAUGUACCGAAUCGGGAAAGGGUUUUUUUGGGAAAAAAAGGGAAAGUAUUAUGUUACGCCGUUCGGAUCUGCA | -0.841
UGGGAGGUCGAUUUUGUUUAUUUUUUUAGCUCAUUUCCAGGGGUGGGAAUUUUUUUUUAAUAUGUGUCAUGAAUAAAGUUGUUUUUGAAA | 2.67
UAACUUUAGAGGAGGAUCUGAUGGAUAUGGCAGUGGACGUGGAUUUGGGGAUGGCUAUAAUGGGUAUGGAGCAGGACCUGGAGGUGGCAA | -0.67
AAGUCCUGUGCUACACAUCGUAUGUACCGAAUCGGGAAAAAGGGAAAAAGGGUGGGAAAGUAUUAUGUUACGCCGUUCGGAUCUGCACUU | 1.52
UGGCCCUGGUGGCAUGCGGGGAGGAAGAGGUGGCCUCAUGGAUCGUGGUGGUCCCGGUGGAAUGUUCAGAGCUGGCCGUGGUGGAGACAG | 3.83
AGCCGAGCGGGAACGGAACCGACAGCUGGAGCGAGAGAAACGUCGGGAGCACAGUCGGGAGAGGGACAGGGAGAGAGAGAGAGAAAGGGA | -0.76
AUGGAUGACCCCUCUGUGGGCCCCAAGAUCCCCCAGGCUUUGGAGAAGAUCCUGCAGCUGAAGGAGAGCCGCCAGGAAGAGAUGAAUUCU | -1.92
UUUCUCCACAGGAGCCCCGCAAGUGAGCCAGCCACUGCGAGAGCAGAGUGAGGAUAUACCUGGAGCCAUUUCCUCUGCCCUGGCAGCCAU | 0.0631
CUCAAGUCCUGUGCUACACAUCGUAUGUACCGAAUCGGAAAGGUUUUUGGUGGAAAGUAUUAUGUUACGCCGUUCGGAUCUGCACUUCCA | -1.07
GUCCUGUGCUACACAUCGUAUGUACCGAAUCGGCCCCCCGGGCCCCCCGGCCCCCCGGAAAGUAUUAUGUUACGCCGUUCGGAUCUGCAC | -0.723
CCUGUGCUACACAUCGUAUGUACCGAAUCGGGGUUUGGGGUUUUUUUGGGGAAAAAGGGGAAAGUAUUAUGUUACGCCGUUCGGAUCUGC | 0.847

Excerpt of the above (sample 1):
Substitution | relative binding score [%]
L20S | 104
D97P | 91.4
P146N | 34.9
R99W | 110
L28V | 97.3
L82Q | 43.4
